Results collected from several papers.
A part holds a random share of what one study measured. Positions count from the first letter of the parent shown.

Study 1
Target: RING finger protein unkempt homolog, zinc fingers 1-6, GST-SBP tag (UNK, Homo sapiens, UniProt Q9C0B0, residues 30-357)
Method: RNA Bind-n-Seq
Form: RNA
Medium: in vitro
Tested at: not given
Setting: RNA with constant flanks, human and mouse sites, ends assumed
Baseline: input RNA pool
Reading: higher = stronger binding
All sequences stand within: GGGAGUUCUACAGUCCGACGAUC … CAACAGAGGAUUGAGCAUCA
Target sequence (chain): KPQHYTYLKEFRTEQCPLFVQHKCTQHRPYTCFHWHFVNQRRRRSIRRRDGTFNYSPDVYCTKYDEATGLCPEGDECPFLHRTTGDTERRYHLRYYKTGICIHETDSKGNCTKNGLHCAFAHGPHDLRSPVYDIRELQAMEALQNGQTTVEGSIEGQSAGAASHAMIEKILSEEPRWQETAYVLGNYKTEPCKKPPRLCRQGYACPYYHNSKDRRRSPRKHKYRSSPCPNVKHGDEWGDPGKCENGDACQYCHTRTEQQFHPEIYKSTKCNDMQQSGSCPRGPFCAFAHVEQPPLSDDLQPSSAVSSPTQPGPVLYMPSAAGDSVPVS
Oligonucleotide	bound/input enrichment [ratio]
UCAGGAACCCAGACAAACAUGAAUGUAAAUGAAGUCAUUAGCAACAGAGCAAUUGAAAUGUUAGGAGGUGAACUUGGCAGCAAGAAGCCUGUGCACCCCAAUGAUCAUGUUAACAAAAGC	0.252
AUUUUUCAGAGAAGUAUAGAUACUGUCUCCACUCCCUAAUAAUUUCUCUCCCUAACAUUUUAGCAAUUUUUACCUUGUUUGGGGGUUCAUUUUGUUUCUUCAGAUUUGAUUUAGACUCUG	8.96
UUGAUUCAUAGGGAUAUUAAAGCAGGAAAUAUUCUUCUAACAGAGCCAGGUCAGGUAAAACUAGCUGAUUUUGGAUCUGCUUCAAUGGCUUCUCCUGCCAACUCCUUCGUGGGCACACCU	0.0746
AGCACAUGAUUUGGGAAUUACACUUUGUGACAUGGAUGAAUCUGCACUGACCCUUGGUACAAUAGAUGUUUCUUAUCUGCCACAUUCAUCAGAAUACAGUGUUGGUCGAUGUAAGCACAC	0.228
CGAGCGUCGGUUGCCCGACAUGUGAGUGCCAUUCCUUGGGGCAUUUCUGCCACUGCAGCCCUCAGGCCUGCUGCAUGUGGAAGAACGAGCUUGACAAAUUUAUUGUGUUCUGGUUCCAGU	0.0984
AUUGCAGCUAAAUAUCAGUUGGAUCCCACUGCUUCCAUUUCUGCAAAAGUCAACAACUCUAGCUUAAUUGGAGUAGGCUAUACUCAGACUCUGAGGCCUGGUGUGAAGCUUACACUCUCU	0.192
ACGGAUAUCGCCUACAACCAGACCAUCCUGCCCAACCUGCUGGGCCACACGAACCAAGAGGACGCGGGCCUCGAGGUGCACCAGUUCUACCCUCUGGUAAAGGUGCAGUGUUCUCCUGAG	0.0724
GAUAUUGAAAAUAACAUGCCAGAGUUUUUACUAAAAAGUAUGAAAAAGAAGCCGCCUUCUACAGCUAAAAAGAUGUUCUUAAUAGUUGCUCCUCUUUCUGUCCUCUACAACUGGAAGGAU	0.388
GUGUCUAAAUGUUCUGAAGAAAUAAAGAACUAUAUUGAAGAACGUUCUGGAGAGGAUCCUCUAGUAAAGGGAAUUCCAGAAGACAAGAACCCCUUUAAAGAAAAAGGCAGCUGUGUUAUU	0.305
CUGGAGGAACUGCAACUGGAAUCCCCGAAGCUCCAUGCUGAGGCCAUCAAGCGGGAUCCUAACCUGUUCCCCUUUGAGAAGGAAGGGCCACAUUACACACCACCGAUCCCUAACUACCAA	0.108
AAUUCAUCUAAAGAUGUCUCUGGUGAUUUUUAUAUGUUCCGCUAUAUAAUUGAUGCUUUAUAGUUUUAUCAUAAUCCAACAACUUCAGUUAUAUUUAAUUAUUGUUAAGGAGUUUAAGAC	1.04

Study 2
Target: CCNB2, cyclin fold, Cln2 fusion (human)
Method: yeast growth competition, sequencing
Medium: yeast
Setting: weak parent motif
Baseline: not given
Reading: higher = stronger binding
Starting sequence: RBL2 docking peptide (human); STTRRRLFVENDS; partner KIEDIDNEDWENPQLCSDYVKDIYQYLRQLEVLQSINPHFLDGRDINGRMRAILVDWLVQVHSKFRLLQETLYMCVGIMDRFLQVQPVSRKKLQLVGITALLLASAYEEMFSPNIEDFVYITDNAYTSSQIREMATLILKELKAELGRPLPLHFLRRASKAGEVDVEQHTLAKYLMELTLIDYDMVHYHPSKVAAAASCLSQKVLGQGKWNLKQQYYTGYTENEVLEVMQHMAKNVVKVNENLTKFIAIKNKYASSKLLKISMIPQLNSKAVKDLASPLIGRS
Substitution	normalised enrichment score
T3L	0.781
E10L	0.141
S1I	0.25
S1L	0.127
V9I	0.393
E10H	0.589
R4H	0.118
S13G	0.631
V9G	0.339
T3H	0.211
S1H	0.272
V9A	0.658
S13F	0.905
D12F	0.588
E10F	0.638
S13I	0.698
S1R	1.04
S13V	0.0267
S1W	0.0192
R4F	0.593
V9N	1.25
D12W	0.643
R5K	0.544
S13L	0.708
L7V	-0.222

Study 3
Target: RNA binding protein fox-1 homolog 2, RRM domain, GST-SBP tag (RBFOX2, Homo sapiens, UniProt O43251-10, residues 100-194)
Method: RNA Bind-n-Seq
Form: RNA
Medium: in vitro
Tested at: 365 nM
Setting: natural RNA segment, single round, ends assumed
Baseline: no-protein control
Reading: higher = stronger binding
All sequences stand within: GGGAGUUCUACAGUCCGACGAUC … UGGAAUUCUCGGGUGCCAA
Residues (chain): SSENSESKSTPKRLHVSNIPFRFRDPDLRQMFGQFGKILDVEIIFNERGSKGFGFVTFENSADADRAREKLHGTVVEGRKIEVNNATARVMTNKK
Oligonucleotide	RBNS enrichment (R)
UUUUGGAACAUUUAUGUAAGAUUGAAAUGUAUUUGAGAACUGCAUUAAAACUUUUAACUAAAGCCCCAGACUCUUUUGCACCUGGCAGCCAGUCAGGCUGGAUUUGGCCA	0.587
UGACAUGUUCACCCAUCUUCUCUGCUUCCCGCCACCAUCCAGAUCCUCAGCGGCCGCCCCGGCUGUGCCCUUCCCUGCUCUCCCGCUCUCUCAGGCCUCGGAAGGAAGAU	0.644
CGAACCCCACUUGGCAUGUGCCGAGCACACAGUUCCUGUGGUAGACUUUUCAGAGAACCCUUCUGUGCCAGGACUCGUGGAAGCCUGGAGCGGAGCAGAUGCCUGUCCAA	0.347
AAUUAUAUUGAAAUGCUGCCCUAGAAGUACAAUAGGAAGGCUAAAUAAUAAUAACCUGUUUUCUGGUUGUUGUUGGGGCAUGAGCUUGUGUAUACACUGCUUGCAUAAAC	0.538
UACUCCAAGAGGAUAGGGAGGGCACUGCACCCAAGCAGGAGGUGAGGUCUGUCACUAGGCAGGAAACCAUGUAGGUAAGUGUAGGACCUGCUUUGCUUAGCCACUACUGG	0.634
UGUAAAGCUGAGCCUACAGACCUGUCCUCACCAACUGUUUUGUGAUUUCUACUCAACUACAAAGAUUUAUUUAAUGUACUCUUAAUCUAACUGAGUUUUGUUACCAAUGA	0.648
CAGUCAGGAGGUGAGAGGCUGAGGAAAGAGCCAGCAUCAGGAGGUGACUCUGGUUGGCAAGGGUGAGCUGUGCUUGGCCAGGAAGGUGGCAUUAAAGGCUGUGCUCACGU	1.05
AAAAGCCGAAAUCAAAUGGUCAAGGCUGCUGAGGCUAAACUCCAGCAGAGUUUGCAGCGCUGAUGUGUGAGCUGGCAGAGCAGAAUCACUCUUCAAGCGCUUGCUCUUAC	0.528
CCCUCUUGGCUCAUUCCAAGCUUGGCCAAAUUGGGGAAGUGGGAUGGAGGUUGCCCUGCAUCCCCCCUCCUCUGCCUGAGUGUGUCUUUGUAAUGUCAGCUGGCAUCAUA	0.538
GAUUUUUUUUAAACUAAAGCUAUAUAAAGCUUGUGGAUUAAACAGAAUAAAUUUCUAAAUUUAAAAAUUUUGCCACUCUUACUUAGUAGUGCUUAUGUAAACCUUUUGGU	0.826
UGUCUCUCCCAGUACAUCCCCGGAUUGGUGUGGGUAGAUAGGCCAACGUAUGGUGAUCUCCCCUAGUGUCUGGAUGGACUUAAUGCUCAUCCCUGACCAGAGACUAGGGU	0.339
GUGGCCUAUGGCCCAGGACAGCCUGGCAGGUGGCCUCGCUGCCCCCAGUUCCCCUCUCUGCCCCCACACUCGUCUUAGUUGCUUCACACUGGUCACUGGCCCUGCACACU	0.745

Study 4
Target: JUNB, bZIP domain (human)
Method: DHFR protein complementation
Medium: yeast
Setting: single substitutions, most at no-binding floor
Baseline: wild-type JUN-FOS pair
Reading: higher = stronger binding
Starting sequence: JUN, bZIP domain (human); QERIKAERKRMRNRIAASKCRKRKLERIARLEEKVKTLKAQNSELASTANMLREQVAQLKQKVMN; partner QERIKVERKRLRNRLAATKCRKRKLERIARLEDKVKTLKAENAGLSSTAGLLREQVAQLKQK
Substitution	binding fitness
A57C	-1.39 natural log
L45D	-1.51 natural log
R30P	-1.42 natural log
L52T	-1.52 natural log
L45F	-1.52 natural log
Q41D	-1.44 natural log
N42G	-1.37 natural log
A29I	-1.31 natural log
K39E	-0.933 natural log
K34M	-0.973 natural log
K39Q	-0.895 natural log
M51Q	-1.07 natural log
E44W	-1.44 natural log
S47I	-1.09 natural log
Q41N	-1.39 natural log
A29M	-1.42 natural log
E32H	-1.33 natural log
L38C	-1.48 natural log
R30G	-1.26 natural log
E33M	-1.26 natural log
K36S	-1.3 natural log
A40H	-1.23 natural log
S47A	-0.878 natural log
R30K	-1.13 natural log
L45A	-1.5 natural log

A few entries again (study 1):
Oligonucleotide	bound/input enrichment [ratio]
CGAGCGUCGGUUGCCCGACAUGUGAGUGCCAUUCCUUGGGGCAUUUCUGCCACUGCAGCCCUCAGGCCUGCUGCAUGUGGAAGAACGAGCUUGACAAAUUUAUUGUGUUCUGGUUCCAGU	0.0984
AUUGCAGCUAAAUAUCAGUUGGAUCCCACUGCUUCCAUUUCUGCAAAAGUCAACAACUCUAGCUUAAUUGGAGUAGGCUAUACUCAGACUCUGAGGCCUGGUGUGAAGCUUACACUCUCU	0.192
AGCACAUGAUUUGGGAAUUACACUUUGUGACAUGGAUGAAUCUGCACUGACCCUUGGUACAAUAGAUGUUUCUUAUCUGCCACAUUCAUCAGAAUACAGUGUUGGUCGAUGUAAGCACAC	0.228
CUGGAGGAACUGCAACUGGAAUCCCCGAAGCUCCAUGCUGAGGCCAUCAAGCGGGAUCCUAACCUGUUCCCCUUUGAGAAGGAAGGGCCACAUUACACACCACCGAUCCCUAACUACCAA	0.108
AAUUCAUCUAAAGAUGUCUCUGGUGAUUUUUAUAUGUUCCGCUAUAUAAUUGAUGCUUUAUAGUUUUAUCAUAAUCCAACAACUUCAGUUAUAUUUAAUUAUUGUUAAGGAGUUUAAGAC	1.04
UCAGGAACCCAGACAAACAUGAAUGUAAAUGAAGUCAUUAGCAACAGAGCAAUUGAAAUGUUAGGAGGUGAACUUGGCAGCAAGAAGCCUGUGCACCCCAAUGAUCAUGUUAACAAAAGC	0.252
ACGGAUAUCGCCUACAACCAGACCAUCCUGCCCAACCUGCUGGGCCACACGAACCAAGAGGACGCGGGCCUCGAGGUGCACCAGUUCUACCCUCUGGUAAAGGUGCAGUGUUCUCCUGAG	0.0724
AUUUUUCAGAGAAGUAUAGAUACUGUCUCCACUCCCUAAUAAUUUCUCUCCCUAACAUUUUAGCAAUUUUUACCUUGUUUGGGGGUUCAUUUUGUUUCUUCAGAUUUGAUUUAGACUCUG	8.96
GUGUCUAAAUGUUCUGAAGAAAUAAAGAACUAUAUUGAAGAACGUUCUGGAGAGGAUCCUCUAGUAAAGGGAAUUCCAGAAGACAAGAACCCCUUUAAAGAAAAAGGCAGCUGUGUUAUU	0.305
UUGAUUCAUAGGGAUAUUAAAGCAGGAAAUAUUCUUCUAACAGAGCCAGGUCAGGUAAAACUAGCUGAUUUUGGAUCUGCUUCAAUGGCUUCUCCUGCCAACUCCUUCGUGGGCACACCU	0.0746
